Published values collected from several papers.
Each numbered part is a random draw from the data of one study; scales do not carry over between parts.
Sequence of UniProt P30291 (whole entry, looked up): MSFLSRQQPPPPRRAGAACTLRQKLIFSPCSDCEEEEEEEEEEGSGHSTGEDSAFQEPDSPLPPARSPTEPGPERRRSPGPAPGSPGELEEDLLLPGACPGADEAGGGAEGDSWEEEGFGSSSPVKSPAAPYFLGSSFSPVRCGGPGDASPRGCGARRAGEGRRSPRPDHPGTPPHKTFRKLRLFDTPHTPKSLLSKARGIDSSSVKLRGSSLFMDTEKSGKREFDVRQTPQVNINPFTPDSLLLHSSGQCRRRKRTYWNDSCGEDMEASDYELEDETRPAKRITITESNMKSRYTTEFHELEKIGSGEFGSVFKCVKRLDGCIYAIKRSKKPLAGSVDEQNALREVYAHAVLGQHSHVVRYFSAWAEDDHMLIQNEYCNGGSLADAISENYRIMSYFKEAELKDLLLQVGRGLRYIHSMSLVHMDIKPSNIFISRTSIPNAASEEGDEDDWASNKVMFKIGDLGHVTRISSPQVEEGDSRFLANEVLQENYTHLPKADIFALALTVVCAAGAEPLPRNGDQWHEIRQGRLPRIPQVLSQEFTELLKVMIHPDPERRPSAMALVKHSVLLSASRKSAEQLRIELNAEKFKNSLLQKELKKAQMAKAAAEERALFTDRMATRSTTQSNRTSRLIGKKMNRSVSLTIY
Sequence of UniProt P43116 (whole entry, looked up): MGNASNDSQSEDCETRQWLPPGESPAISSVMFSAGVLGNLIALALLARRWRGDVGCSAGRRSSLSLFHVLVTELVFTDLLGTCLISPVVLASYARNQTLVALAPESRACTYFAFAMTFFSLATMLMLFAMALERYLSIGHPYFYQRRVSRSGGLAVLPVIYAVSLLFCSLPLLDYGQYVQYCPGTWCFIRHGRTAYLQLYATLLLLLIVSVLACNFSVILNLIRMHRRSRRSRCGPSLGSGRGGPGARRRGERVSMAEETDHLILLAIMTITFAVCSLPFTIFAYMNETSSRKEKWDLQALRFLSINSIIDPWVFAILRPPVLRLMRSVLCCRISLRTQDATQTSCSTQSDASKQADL
Sequence of UniProt P27361 (whole entry, looked up): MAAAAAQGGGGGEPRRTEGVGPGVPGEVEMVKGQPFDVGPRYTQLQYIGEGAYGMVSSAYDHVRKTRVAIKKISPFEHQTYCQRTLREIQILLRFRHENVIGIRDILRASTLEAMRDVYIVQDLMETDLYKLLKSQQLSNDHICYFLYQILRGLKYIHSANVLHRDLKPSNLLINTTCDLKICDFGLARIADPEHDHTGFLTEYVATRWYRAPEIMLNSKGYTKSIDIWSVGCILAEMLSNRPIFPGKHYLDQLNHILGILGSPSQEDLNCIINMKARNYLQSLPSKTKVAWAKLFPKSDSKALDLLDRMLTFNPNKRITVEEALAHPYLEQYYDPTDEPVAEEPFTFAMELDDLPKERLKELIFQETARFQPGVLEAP
Sequence of UniProt Q04912 (whole entry, looked up): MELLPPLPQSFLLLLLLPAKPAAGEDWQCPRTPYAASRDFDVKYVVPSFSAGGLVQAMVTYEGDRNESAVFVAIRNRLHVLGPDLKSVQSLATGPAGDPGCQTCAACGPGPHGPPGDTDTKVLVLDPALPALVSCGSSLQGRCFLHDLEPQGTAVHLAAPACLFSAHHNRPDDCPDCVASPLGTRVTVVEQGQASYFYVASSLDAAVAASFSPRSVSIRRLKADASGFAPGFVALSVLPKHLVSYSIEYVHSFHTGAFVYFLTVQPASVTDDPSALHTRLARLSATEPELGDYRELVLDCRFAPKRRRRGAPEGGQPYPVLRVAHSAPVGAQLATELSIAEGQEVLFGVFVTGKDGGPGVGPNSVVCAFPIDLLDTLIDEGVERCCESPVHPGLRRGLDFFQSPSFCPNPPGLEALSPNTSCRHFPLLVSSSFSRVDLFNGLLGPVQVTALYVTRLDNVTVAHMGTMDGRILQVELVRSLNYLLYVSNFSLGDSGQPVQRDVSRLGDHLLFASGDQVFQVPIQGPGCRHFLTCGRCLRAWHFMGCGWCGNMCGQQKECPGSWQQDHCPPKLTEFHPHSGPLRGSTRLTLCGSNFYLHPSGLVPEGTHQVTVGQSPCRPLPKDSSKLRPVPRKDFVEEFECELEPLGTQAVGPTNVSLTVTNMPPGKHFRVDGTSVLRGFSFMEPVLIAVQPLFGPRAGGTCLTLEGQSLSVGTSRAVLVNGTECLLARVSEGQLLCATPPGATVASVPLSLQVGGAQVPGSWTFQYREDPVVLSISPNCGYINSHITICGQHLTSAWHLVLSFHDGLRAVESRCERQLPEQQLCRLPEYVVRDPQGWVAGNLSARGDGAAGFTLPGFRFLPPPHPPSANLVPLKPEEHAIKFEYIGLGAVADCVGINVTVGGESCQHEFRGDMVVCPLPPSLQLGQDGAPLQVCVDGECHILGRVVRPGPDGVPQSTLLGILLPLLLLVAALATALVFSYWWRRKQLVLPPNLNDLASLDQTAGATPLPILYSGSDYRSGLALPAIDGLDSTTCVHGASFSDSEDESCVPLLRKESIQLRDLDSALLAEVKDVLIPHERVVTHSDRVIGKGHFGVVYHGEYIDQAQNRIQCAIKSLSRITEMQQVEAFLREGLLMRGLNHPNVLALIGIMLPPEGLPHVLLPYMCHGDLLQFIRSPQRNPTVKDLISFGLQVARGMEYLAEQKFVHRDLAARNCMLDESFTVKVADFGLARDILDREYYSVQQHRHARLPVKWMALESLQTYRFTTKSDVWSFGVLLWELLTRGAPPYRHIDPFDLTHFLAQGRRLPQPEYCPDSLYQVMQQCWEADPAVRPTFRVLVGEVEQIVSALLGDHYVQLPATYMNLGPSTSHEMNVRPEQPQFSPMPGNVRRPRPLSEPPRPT
Sequence of UniProt O15111 (whole entry, looked up): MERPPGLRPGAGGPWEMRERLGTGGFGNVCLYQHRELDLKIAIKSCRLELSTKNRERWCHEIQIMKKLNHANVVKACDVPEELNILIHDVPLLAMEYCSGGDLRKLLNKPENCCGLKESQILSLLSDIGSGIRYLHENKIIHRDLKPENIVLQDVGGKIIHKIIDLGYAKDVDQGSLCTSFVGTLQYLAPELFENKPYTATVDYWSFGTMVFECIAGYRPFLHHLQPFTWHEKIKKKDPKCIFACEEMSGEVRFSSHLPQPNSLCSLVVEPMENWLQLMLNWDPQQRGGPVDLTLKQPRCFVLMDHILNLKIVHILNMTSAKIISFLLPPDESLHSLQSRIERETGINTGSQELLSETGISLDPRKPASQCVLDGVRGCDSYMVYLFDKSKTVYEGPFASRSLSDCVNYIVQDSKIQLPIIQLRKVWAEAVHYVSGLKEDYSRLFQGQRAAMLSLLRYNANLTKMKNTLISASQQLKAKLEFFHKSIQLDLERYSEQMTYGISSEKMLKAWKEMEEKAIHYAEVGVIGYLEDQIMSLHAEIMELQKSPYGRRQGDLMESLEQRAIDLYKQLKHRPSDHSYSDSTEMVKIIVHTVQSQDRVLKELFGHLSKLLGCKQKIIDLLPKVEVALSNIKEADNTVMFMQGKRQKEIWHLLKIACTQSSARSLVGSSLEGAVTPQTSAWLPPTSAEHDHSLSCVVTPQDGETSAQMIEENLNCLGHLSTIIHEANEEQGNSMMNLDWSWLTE
Sequence of UniProt Q96RI8 (whole entry, looked up): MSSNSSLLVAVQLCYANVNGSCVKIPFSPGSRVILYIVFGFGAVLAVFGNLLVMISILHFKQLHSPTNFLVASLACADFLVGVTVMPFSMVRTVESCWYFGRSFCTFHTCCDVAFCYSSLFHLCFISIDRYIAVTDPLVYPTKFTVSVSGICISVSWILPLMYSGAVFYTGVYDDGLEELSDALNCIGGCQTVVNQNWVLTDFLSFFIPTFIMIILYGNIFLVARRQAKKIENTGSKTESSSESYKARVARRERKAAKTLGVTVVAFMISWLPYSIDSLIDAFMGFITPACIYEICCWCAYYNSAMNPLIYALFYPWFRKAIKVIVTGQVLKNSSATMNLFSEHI
Sequence of UniProt P33981 (whole entry, looked up): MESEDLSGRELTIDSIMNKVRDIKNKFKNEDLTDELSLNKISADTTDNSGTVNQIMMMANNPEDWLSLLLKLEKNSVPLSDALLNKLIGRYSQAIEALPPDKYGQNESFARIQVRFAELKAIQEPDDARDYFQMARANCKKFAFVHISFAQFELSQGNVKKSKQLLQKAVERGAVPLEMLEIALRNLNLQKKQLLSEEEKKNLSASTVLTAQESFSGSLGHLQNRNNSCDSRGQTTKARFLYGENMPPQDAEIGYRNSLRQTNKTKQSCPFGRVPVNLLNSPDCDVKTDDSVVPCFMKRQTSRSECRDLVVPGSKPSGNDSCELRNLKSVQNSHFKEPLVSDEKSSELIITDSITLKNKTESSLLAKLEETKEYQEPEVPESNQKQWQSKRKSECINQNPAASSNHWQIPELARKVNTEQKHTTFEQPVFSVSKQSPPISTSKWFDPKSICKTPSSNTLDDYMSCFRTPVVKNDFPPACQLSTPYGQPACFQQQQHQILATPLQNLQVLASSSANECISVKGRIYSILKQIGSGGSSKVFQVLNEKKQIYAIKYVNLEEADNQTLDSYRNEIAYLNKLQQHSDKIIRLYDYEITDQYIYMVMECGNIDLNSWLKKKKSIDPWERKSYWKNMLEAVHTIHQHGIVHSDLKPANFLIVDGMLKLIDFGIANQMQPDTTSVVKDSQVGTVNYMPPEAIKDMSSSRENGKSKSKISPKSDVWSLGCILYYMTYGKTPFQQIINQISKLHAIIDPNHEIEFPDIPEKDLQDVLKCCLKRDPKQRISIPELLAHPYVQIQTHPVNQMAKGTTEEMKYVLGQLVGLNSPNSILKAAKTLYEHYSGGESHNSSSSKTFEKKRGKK
Sequence of UniProt Q9HC98 (whole entry, looked up): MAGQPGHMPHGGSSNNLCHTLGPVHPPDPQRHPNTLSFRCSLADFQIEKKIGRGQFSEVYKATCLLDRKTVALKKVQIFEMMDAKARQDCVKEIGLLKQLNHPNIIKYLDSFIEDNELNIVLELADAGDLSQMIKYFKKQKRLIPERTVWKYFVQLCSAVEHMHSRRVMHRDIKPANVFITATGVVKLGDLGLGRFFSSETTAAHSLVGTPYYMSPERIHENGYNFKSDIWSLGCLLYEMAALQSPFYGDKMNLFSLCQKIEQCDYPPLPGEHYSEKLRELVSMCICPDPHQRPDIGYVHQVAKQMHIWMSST

Set 1
Compound: CNC(=O)Nc1ccc2c(c1)[C@@]1(CC2)OC(=O)N(CC(=O)N(Cc2ccc(F)cc2)[C@@H](C)C(F)(F)F)C1=O
Read-out: cell-free assay
Technique: competition with immobilised ligand
Tested at: 1 µM
target	remaining binding
BMP2K (Homo sapiens, UniProt Q9NSY1)	100%
WEE1 (Homo sapiens, UniProt P30291)	100%
CHUK (Homo sapiens, UniProt O15111)	100%
MARK4 (Homo sapiens, UniProt Q96L34)	92%
EPHA8 (Homo sapiens, UniProt P29322)	96%
TTK (Homo sapiens, UniProt P33981)	100%

Set 2
Compound: NC(N)=NC(=O)c1nc(Cl)c(N2CCCCCC2)nc1N
Read-out: β-arrestin recruitment
Mode: agonist
Technique: PRESTO-Tango
Tested at: 10 µM
Reference: untreated
target	fold over basal
AVPR2 (Homo sapiens, UniProt P30518)	0.63
Trace amine-associated receptor 6 (TAAR6, Homo sapiens, UniProt Q96RI8)	1.1 fold
AVPR1A (Homo sapiens, UniProt P37288)	0.79
ADRA2A (Homo sapiens, UniProt P08913)	1
G-protein coupled receptor 157 (GPR157, Homo sapiens, UniProt Q5UAW9)	0.58
S1PR3 (Homo sapiens, UniProt Q99500)	0.7
PTGER2 (Homo sapiens, UniProt P43116)	0.6

Set 3
Structure (SMILES): COc1cc2ncc(-c3ccccc3)nc2cc1OC
Read-out: enzyme activity
Mode: inhibitor
Tested at: 0.5 µM
Reference: control
target	remaining activity [%]
LCK (Homo sapiens, UniProt P06239)	93.5
NEK1 (Homo sapiens, UniProt Q96PY6)	95.9
TEK (Homo sapiens, UniProt Q02763)	85.7
WEE1 (Homo sapiens, UniProt P30291)	82.8
ULK3 (Homo sapiens, UniProt Q6PHR2)	89.4
MERTK (Homo sapiens, UniProt Q12866)	80
GSK3B (Homo sapiens, UniProt P49841)	113
ACVR1B (Homo sapiens, UniProt P36896)	95.2
MAP3K5 (Homo sapiens, UniProt Q99683)	108
MAP2K2 (Homo sapiens, UniProt P36507)	102
NEK6 (Homo sapiens, UniProt Q9HC98)	93.8
MST1R (Homo sapiens, UniProt Q04912)	84.2
MAPK3 (Homo sapiens, UniProt P27361)	97.6
MAP3K14 (Homo sapiens, UniProt Q99558)	115

Set 4
Organism: Sarcocystis neurona
Read-out: parasite growth
Tested at: 10 µM
Time: 96 h
Setting: secondary screen
SMILES	inhibition
C[C@H](CCC(=O)O)[C@H]1CC[C@H]2[C@@H]3C(=O)C[C@@H]4CC(=O)CC[C@]4(C)[C@H]3CC(=O)[C@]12C	-33.6%
C=C(CC)C(=O)c1ccc(OCC(=O)O)c(Cl)c1Cl	11.5%
O=c1c(O[C@@H]2O[C@H](CO)[C@@H](O)[C@H](O)[C@H]2O)c(-c2ccc(O)c(O)c2)oc2cc(O)cc(O)c12	-12.1%
COC(=O)C1=C(C)NC(C)=C(C(=O)OC)C1c1ccccc1[N+](=O)[O-]	-20.3%
CCOC(=O)[C@H](CCc1ccccc1)N[C@@H](C)C(=O)N1CCC[C@H]1C(=O)O	-7.7%
O=C1CCC(N2C(=O)c3ccccc3C2=O)C(=O)N1 (stereo not shown)	-15.4%
CN(C)CCOc1ccc(/C(=C(/CCCl)c2ccccc2)c2ccccc2)cc1	-32.9%

For quick reference, copied from above (set 3):
target	remaining activity [%]
MAP2K2 (Homo sapiens, UniProt P36507)	102
NEK6 (Homo sapiens, UniProt Q9HC98)	93.8
MST1R (Homo sapiens, UniProt Q04912)	84.2
